Assay results collected from several papers.
A part holds a random share of what one study measured. Substitutions count along the parent as printed.

Series 1 — technique: universal PBM; molecule type: double-stranded DNA, one strand shown; sample: in vitro; concentration: not given; reading: higher = stronger binding
Target: Sal-like protein 4, full length isoform B (SALL4, Homo sapiens, UniProt Q9UJQ4-2, residues 1-616)
Setting: 8-mer, flanks averaged, mean of replicates
Target sequence (chain): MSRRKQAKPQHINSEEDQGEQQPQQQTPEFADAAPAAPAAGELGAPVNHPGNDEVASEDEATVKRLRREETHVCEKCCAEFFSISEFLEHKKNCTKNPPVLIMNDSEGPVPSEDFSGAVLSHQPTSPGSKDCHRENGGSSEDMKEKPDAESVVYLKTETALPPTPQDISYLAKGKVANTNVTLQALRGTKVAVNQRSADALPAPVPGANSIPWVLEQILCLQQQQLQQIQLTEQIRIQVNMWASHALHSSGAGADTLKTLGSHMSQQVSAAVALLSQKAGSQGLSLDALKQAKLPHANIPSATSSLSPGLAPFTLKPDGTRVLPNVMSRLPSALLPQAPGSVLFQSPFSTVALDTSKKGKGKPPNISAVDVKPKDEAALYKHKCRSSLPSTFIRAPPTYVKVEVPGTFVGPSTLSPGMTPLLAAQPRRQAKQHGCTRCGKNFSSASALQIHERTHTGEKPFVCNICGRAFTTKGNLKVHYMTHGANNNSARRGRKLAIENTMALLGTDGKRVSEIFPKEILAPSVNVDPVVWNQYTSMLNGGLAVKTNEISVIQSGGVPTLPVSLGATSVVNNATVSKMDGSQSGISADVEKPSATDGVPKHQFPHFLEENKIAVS
| Strand | E-score |
| --- | --- |
| ATTGGAGC | 0.0407 |
| CACCTGCC | -0.214 |
| ATGCTATG | 0.254 |
| CTACCCCA | -0.0608 |
| ACTCCACA | -0.0574 |
| CATTAGGG | 0.00324 |
| GAAAGGCC | -0.196 |
| ATTAGGTG | 0.0997 |

Series 2 — technique: aptamer microarray, sandwich; molecule type: DNA with 2'F-ANA; sample: in vitro; concentration: 200 nM; together with: Cy3 exosite-II aptamer, 400 nM; reading: higher = stronger binding; strand: GGTTGGTGTGGTTGG
Target: Prothrombin, mature alpha-thrombin (F2, Homo sapiens, UniProt P00734)
Setting: whole 15-mer aptamer, many near background
| Modification | mean fluorescence intensity [a.u.] |
| --- | --- |
| 2'F-ANA at 2 3 7 11 13 15 | 689 |
| 2'F-ANA at 1 2 3 4 5 6 9 10 11 12 13 14 | 53.9 |
| 2'F-ANA at 1 3 4 5 6 10 12 15 | 49.8 |
| 2'F-ANA at 1 2 3 4 6 7 10 13 14 15 | 91.2 |
| 2'F-ANA at 5 6 9 10 11 13 14 15 | 46.9 |
| 2'F-ANA at 1 5 7 10 12 13 14 15 | 45.9 |
| 2'F-ANA at 3 5 7 9 11 12 15 | 236 |
| 2'F-ANA at 1 3 7 8 9 12 15 | 644 |

Series 3 — technique: EMSA with sequencing; molecule type: double-stranded DNA, one strand shown; sample: in vitro; concentration: 10 and 20 nM; relative to: negative control set to 0; reading: higher = stronger binding
Target: Hepatocyte nuclear factor 3-alpha (Foxa1, Mus musculus, UniProt P35582, residues 1-468, full length assumed)
UniProt P35582, sequence (whole entry, looked up): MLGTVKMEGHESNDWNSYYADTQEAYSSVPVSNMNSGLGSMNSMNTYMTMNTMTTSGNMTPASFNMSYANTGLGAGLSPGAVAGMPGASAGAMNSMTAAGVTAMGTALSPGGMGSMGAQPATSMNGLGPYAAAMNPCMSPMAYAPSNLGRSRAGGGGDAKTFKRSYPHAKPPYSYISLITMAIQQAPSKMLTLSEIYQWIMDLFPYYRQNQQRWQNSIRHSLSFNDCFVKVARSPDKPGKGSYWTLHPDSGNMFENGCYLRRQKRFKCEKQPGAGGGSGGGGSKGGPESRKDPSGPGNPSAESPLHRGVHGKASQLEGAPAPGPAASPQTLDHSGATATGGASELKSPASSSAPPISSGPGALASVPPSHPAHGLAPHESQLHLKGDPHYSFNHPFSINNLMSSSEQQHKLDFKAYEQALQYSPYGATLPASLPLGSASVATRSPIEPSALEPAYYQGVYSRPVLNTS
Setting: whole designed probe, mean of two concentrations, ends assumed
Shared flanks, not repeated: GTGAGCGGTGCCCATTGATGGGGAAC … TTTCACTGGGATCGTGGGGAC
| Strand | normalised bound fraction |
| --- | --- |
| GAGCTGCTTGCAATTGAGTTGTATGTATGCTTCCACTTAATACGTCCTGCCGAGCCTGTCACTTCCGGCAAGCCAACAGGAATCTGCCCTCTGTGTTTACCTACTCTCTTTTTATGTCTTATTCCCAGAATGACTGGGGACCAAAGGAATCCTTTGCAGGAGTTTTCTCCAGACAGACAGTTCCACATGCTAG | 0.25 ratio |
| TATATCTGTAGGTATATATATATACACACAGCAAACAAAGTCTTTTGCTTTAAGTCAGGTTGATGTAATTGTCACTGTTTAGCAAAATTGCTTGTTTACTTTGCATTCAATCTCTTTTCCTTATTACCCCCCTGAAAGTTTTTATTTCTAACAAGACACTTGTATATTAAATCTTTAAATTATGTTTGGTGTT | 0.491 ratio |
| ATCTTCCCCCTCTTCCTTGCCCCACCAGCTCACCTTCCCGGGTATATTGGAGATAGGAAATTAATATAAGCCGGCATTCGTTAACCCTCTTCACGCGCATACTGCCAGAGCAAACAGATCTAACATGGTCCTTTGGCGACGCCAGGCTCCGGGAGAGCAAAGCACCGTGTCAGGGCCATGATCCGGGGTGGCC | 0.165 ratio |
| AGATGTAAAACAAAATGGATGTAGACAGCCGATTGTAGACGTAAAGCAAAATGGGTGTAGACAGCTAATTGACTCAACCATACTCTGGGCATGTATTTACTCAATGCTACAATGGGCTGAGTGTTGCTCGAGGTGCTGGAGAGATTTCTGCCAAGAAAAGAGAGAAAAACCCCTGTCCTCCCACATCTGACGC | 0.28 ratio |
| CAATGGGGTAGGTCAGCCCCAGTGAACTCTCAAATGACCACTGAAGGAGGAAGTGAGTGCAGAGTGTGATACCACTCACATCCCAGCCCAGACTGTTTGCTCAGCTGGGAGGAGTGTTCTTCCTGCATTGCAATTCGAGATAACACCCCTTCTCATGGCTTCAGGCATCACCTATCTCCTCTAGGCTGCGCTC | 0.188 ratio |

Series 4 — target: CCNA1, cyclin fold, Cln2 fusion (human); technique: yeast growth competition, sequencing; sample: yeast; setting: weak parent motif; relative to: not given; reading: higher = stronger binding; parent: viral docking peptide; KGVKRKLFAEDSS
| Change | normalised enrichment score |
| --- | --- |
| A9M | 1.06 |
| L7P | 0.00399 |
| V3T | 0.578 |
| V3P | 0.805 |
| A9V | 1.25 |
| A9S | 0.814 |
| L7I | 0.533 |
| S12L | 1.28 |
| F8M | 0.126 |
| E10M | 0.829 |
| R5F | 0.165 |
| R5T | 0.224 |
| K6M | 0.879 |
| A9L | 0.695 |
| G2A | 0.652 |
| K6C | 1.15 |
| A9P | 1.29 |
| S12P | 1.3 |
| G2W | 0.579 |

For quick reference, copied from above (series 4):
| Change | normalised enrichment score |
| --- | --- |
| G2W | 0.579 |
| L7P | 0.00399 |
| G2A | 0.652 |
| A9V | 1.25 |
| V3T | 0.578 |
| L7I | 0.533 |
| S12L | 1.28 |
